Published values pooled from the literature.
Each line is one published result; not all experiments were run side by side. Values joined by “and” are separate records of one study, mostly repeats; a detail may differ.
CHRM3: Muscarinic acetylcholine receptor M3 (CHRM3, Homo sapiens, UniProt P20309)
UniProt P20309, sequence (whole entry, looked up): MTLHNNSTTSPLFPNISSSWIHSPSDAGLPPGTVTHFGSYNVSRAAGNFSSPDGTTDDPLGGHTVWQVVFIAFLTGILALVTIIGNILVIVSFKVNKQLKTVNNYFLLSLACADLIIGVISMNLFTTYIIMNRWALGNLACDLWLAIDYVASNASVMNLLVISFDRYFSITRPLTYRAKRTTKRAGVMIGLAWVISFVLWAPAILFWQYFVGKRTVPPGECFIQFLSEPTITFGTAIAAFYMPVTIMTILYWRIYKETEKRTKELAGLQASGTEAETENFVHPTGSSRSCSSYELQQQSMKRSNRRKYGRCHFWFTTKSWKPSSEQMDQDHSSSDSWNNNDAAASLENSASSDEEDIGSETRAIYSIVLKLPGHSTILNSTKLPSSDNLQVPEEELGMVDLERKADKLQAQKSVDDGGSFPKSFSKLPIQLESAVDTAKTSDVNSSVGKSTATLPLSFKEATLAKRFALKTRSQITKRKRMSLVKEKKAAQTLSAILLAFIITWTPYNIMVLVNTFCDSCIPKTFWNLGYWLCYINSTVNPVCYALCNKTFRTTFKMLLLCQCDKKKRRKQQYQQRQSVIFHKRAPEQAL
UniProt Q12908, sequence (whole entry, looked up): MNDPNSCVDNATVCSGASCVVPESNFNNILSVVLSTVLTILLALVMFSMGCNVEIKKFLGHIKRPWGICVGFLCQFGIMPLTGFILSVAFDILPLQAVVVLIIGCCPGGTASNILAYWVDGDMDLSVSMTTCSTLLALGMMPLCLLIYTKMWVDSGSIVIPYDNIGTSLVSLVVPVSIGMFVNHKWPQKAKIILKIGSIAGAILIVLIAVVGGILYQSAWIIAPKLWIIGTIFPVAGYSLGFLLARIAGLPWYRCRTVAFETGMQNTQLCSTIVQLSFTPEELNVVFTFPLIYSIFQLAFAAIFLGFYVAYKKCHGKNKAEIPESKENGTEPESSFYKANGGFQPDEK
UniProt Q8WUI4, sequence (whole entry, looked up): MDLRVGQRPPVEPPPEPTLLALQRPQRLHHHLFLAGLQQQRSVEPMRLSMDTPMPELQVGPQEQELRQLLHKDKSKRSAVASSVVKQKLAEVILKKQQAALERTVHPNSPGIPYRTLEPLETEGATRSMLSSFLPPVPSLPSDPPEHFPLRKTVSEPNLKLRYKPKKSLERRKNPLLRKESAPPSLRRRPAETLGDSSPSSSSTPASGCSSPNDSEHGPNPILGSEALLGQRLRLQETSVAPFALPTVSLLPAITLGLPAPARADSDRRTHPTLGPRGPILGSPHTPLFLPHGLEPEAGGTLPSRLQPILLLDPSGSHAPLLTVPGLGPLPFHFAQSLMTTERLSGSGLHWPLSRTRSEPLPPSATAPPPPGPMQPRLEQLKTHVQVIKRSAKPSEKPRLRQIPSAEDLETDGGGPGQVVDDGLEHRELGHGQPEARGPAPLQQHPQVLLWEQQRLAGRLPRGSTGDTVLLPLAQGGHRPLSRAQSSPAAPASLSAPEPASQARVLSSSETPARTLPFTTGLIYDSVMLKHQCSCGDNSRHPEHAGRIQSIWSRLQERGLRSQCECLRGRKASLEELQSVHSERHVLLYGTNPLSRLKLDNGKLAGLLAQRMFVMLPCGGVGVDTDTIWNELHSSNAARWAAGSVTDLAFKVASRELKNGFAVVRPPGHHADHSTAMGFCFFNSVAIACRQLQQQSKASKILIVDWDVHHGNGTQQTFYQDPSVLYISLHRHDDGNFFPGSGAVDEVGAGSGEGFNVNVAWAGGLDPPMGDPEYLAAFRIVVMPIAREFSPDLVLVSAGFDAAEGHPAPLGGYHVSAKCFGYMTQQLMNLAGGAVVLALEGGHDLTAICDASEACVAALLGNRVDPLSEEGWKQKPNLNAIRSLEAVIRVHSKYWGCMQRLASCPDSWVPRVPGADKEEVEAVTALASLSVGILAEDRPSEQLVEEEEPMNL
UniProt P08912, sequence (whole entry, looked up): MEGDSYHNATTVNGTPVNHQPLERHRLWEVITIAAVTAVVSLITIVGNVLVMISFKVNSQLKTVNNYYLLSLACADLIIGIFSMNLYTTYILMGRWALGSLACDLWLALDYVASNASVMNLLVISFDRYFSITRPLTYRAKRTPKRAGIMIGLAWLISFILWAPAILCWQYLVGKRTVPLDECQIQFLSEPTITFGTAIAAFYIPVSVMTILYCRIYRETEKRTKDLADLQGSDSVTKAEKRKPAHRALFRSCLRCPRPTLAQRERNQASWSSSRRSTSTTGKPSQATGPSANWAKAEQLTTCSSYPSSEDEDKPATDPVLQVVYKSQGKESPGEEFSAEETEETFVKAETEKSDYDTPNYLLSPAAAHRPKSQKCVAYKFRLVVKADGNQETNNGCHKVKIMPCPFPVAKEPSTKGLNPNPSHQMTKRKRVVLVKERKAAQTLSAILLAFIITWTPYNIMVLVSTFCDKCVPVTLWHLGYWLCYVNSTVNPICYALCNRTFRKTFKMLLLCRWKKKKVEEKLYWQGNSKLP
UniProt P27338, sequence (whole entry, looked up): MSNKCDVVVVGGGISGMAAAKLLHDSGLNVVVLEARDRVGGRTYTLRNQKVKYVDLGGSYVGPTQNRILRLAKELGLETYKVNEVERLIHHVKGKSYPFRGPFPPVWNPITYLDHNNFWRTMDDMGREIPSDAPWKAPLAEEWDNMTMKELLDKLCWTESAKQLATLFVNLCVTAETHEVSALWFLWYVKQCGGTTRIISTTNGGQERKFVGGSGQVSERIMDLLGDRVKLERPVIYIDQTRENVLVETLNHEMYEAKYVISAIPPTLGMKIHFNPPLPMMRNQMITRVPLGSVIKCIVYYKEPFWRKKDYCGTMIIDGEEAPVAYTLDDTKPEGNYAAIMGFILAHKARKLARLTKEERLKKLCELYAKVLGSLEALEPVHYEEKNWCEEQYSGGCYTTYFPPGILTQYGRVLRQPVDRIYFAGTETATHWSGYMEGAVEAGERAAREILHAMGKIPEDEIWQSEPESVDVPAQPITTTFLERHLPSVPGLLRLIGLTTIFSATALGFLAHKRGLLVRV
UniProt P11229, sequence (whole entry, looked up): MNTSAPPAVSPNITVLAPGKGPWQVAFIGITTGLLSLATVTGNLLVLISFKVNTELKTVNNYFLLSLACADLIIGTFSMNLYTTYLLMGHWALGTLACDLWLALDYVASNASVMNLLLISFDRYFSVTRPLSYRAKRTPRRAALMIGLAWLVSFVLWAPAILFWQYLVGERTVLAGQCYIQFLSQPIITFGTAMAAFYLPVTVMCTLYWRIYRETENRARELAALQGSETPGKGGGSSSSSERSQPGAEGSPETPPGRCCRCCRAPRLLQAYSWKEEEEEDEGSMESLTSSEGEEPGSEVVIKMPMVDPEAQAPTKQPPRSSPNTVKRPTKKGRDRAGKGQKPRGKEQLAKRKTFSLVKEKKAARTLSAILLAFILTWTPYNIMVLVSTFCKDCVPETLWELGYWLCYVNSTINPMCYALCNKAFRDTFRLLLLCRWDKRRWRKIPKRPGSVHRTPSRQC
UniProt P16050, sequence (whole entry, looked up): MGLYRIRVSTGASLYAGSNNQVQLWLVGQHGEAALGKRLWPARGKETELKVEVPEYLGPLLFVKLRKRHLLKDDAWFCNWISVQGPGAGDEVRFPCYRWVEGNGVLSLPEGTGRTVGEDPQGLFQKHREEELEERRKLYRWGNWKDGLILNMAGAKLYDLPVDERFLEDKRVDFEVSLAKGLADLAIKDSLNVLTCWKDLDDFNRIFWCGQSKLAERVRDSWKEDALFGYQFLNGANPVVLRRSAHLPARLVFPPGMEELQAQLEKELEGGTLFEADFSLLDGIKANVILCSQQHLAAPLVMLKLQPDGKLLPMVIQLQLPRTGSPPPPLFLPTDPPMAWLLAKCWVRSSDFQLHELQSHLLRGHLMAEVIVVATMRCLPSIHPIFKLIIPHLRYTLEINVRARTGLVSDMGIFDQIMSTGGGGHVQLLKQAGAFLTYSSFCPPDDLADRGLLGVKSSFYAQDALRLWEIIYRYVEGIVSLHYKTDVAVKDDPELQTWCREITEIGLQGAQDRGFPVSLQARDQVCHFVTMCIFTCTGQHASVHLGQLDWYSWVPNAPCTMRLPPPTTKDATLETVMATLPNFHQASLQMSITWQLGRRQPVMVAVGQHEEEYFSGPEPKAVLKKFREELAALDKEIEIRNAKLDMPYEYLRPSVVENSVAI

Structure (SMILES)	target	assay	system	setting	measurement	value
CC(CCC(=O)NC(CCC(=O)Nc1cccnc1F)C(=O)O)C1CCC2C3C(O)CC4CC(O)CCC4(C)C3CCC12C (stereo not drawn)	SLC10A2 (Homo sapiens, UniProt Q12908)	taurocholate uptake, inhibitor	ASBT-MDCK	10 min, with: taurocholate 2.5 µM	Ki	< 10000 nM and 5800 nM
CCCCCCOc1ccc(C(=O)OCC[N+]2(C)CC=CCC2)cc1 (stereo not drawn)	CHRM1 (Homo sapiens, UniProt P11229)	inositol phosphate accumulation, antagonist, Schild analysis	CHO	with: carbachol	Kb	20.9 nM
CCC(=O)NC1CN(CCCCC2CCN(CC(=O)N3c4ccccc4NC(=O)c4ccccc43)CC2)CCN(CC(=O)N2CCC(N3CCC(n4c(=O)[nH]c5ccccc54)CC3)CC2)C1 (stereo not drawn)	CHRM3	ligand displacement, radioligand	–	–	Ki	589 nM
CN1CCN(CC(=O)N2N=C3/C(=C/c4ccccc4)CCCC3C2c2ccccc2)CC1 (mixture of isomers)	ALOX15 (Homo sapiens, UniProt P16050)	enzyme activity, activator	–	pH 7.5, 0.01% Triton X-100, with: arachidonic acid 10 µM	AC50	7800 nM
NCc1cc(C(=O)NCCN2CCN(CCCCC3CCN(CCCN4C(=O)CCc5ccccc54)CC3)CC2)cc(C(=O)NCCN2CCN(CCCCC3CCN(CC(=O)N4c5ccccc5NC(=O)c5ccccc54)CC3)CC2)c1	CHRM5 (Homo sapiens, UniProt P08912)	ligand displacement, radioligand	–	–	Ki	20.4 nM
CCCCCCOc1ccc(C(=O)OCCN2CC=CCC2)cc1	CHRM3	inositol phosphate accumulation, antagonist, Schild analysis	CHO	with: carbachol	Kb	4070 nM
COc1ccc(CCCN[C@H]2CCC[C@@H]2CN[C@H]2CCC[C@@H]2CNCCCCN[C@@H]2CCC[C@H]2CN)cc1	MAOB (Homo sapiens, UniProt P27338)	enzyme activity, inhibitor	–	–	Ki	> 500000 nM
NCc1cc(C(=O)NCCN2CCN(CCCCC3CCN(CC(=O)N4c5ccccc5NC(=O)c5ccccc54)CC3)CC2)cc(C(=O)NCCN2CCN(CCOC(=O)C3c4ccccc4Oc4ccccc43)CC2)c1	CHRM3	ligand displacement, radioligand	–	–	Ki	55 nM
O=C1CCC(N2C(=O)c3ccc(N4CCC(C(=O)N5CCC(CCN6CCC(CNC(=O)c7cccc(-c8noc(C(F)(F)F)n8)c7)(c7nc(-c8ccccc8)cs7)CC6)CC5)CC4)cc3C2=O)C(=O)N1 (stereo not drawn)	HDAC7 (Homo sapiens, UniProt Q8WUI4)	degrader, cell-based	–	–	DC50	25.1 nM

Excerpt of the above:
Structure (SMILES)	target	assay	system	setting	measurement	value
CCCCCCOc1ccc(C(=O)OCC[N+]2(C)CC=CCC2)cc1 (stereo not drawn)	CHRM1 (Homo sapiens, UniProt P11229)	inositol phosphate accumulation, antagonist, Schild analysis	CHO	with: carbachol	Kb	20.9 nM
